{"data": "Published values pooled from the literature", "note": "± gives the spread as reported."}
{"SMILES": "CCC(CC)COC(=O)[C@H](C)N[P@](=O)(OC[C@H]1O[C@@](C#N)(c2ccc3c(N)ncnn23)[C@H](O)[C@@H]1O)Oc1ccccc1", "test": "metabolic stability", "system": "human, liver microsomes", "conditions": "1 µM, pH 7.4", "measurement": "half-life", "value": "1.1 min"}
{"SMILES": "C[N+]1(CC(=O)OC2CCCCCCCCCCC2)CCNCC1.[I-]", "test": "metabolic stability", "system": "human, liver microsomes", "conditions": "1 µM, pH 7.4", "measurement": "half-life", "value": "4 min"}
{"SMILES": "CC[C@H](C)[C@H](NC(=O)[C@H](CO)NC(=O)[C@H](Cc1ccc(O)cc1)NC(=O)[C@H](CC(=O)O)NC(=O)[C@H](CO)NC(=O)[C@@H](NC(=O)[C@H](Cc1ccccc1)NC(=O)[C@@H](NC(=O)CNC(=O)[C@H](CCC(=O)O)NC(=O)[C@H](C)NC(=O)[C@@H](N)Cc1ccc(O)cc1)[C@@H](C)O)[C@@H](C)CC)C(=O)N[C@@H](C)C(=O)N[C@@H](CCSC)C(=O)N[C@@H](CC(=O)O)C(=O)N[C@@H](CCCCN)C(=O)N[C@H](C(=O)N[C@@H](CCCNC(=N)N)C(=O)N[C@@H](CCC(N)=O)C(=O)N[C@@H](CCC(N)=O)C(=O)N[C@@H](CC(=O)O)C(=O)N[C@@H](Cc1ccccc1)C(=O)N[C@H](C(=O)N[C@@H](CC(N)=O)C(=O)N[C@@H](Cc1c[nH]c2ccccc12)C(=O)N[C@@H](CC(C)C)C(=O)N[C@@H](CC(C)C)C(=O)N[C@@H](C)C(=O)N[C@@H](CCC(N)=O)C(=O)N[C@@H](CCCNC(=N)N)C(=O)NCC(=O)N[C@@H](CCCCN)C(=O)N[C@@H](CCCCN)C(=O)N[C@@H](CO)C(=O)N[C@@H](CC(=O)O)C(=O)N[C@@H](Cc1c[nH]c2ccccc12)C(=O)N[C@@H](CCCCN)C(=O)N[C@@H](Cc1c[nH]cn1)C(=O)N[C@@H](CC(N)=O)C(=O)N[C@H](C(=O)N[C@H](C(=O)N[C@@H](CCC(N)=O)C(=O)O)[C@@H](C)O)[C@@H](C)CC)C(C)C)[C@@H](C)CC", "test": "RIA, measured: intact compound", "system": "female C57Bl/6Jrj mice, plasma", "conditions": "intravenous, 25 nmol/kg, added: Val-Pyr 1.5 mg subcutaneous", "measurement": "half-life", "value": "5 ± 0.6 min"}
{"SMILES": "CCCC1O[C@@H]2C[C@H]3[C@@H]4CCC5=CC(=O)C=C[C@]5(C)[C@H]4[C@@H](O)C[C@]3(C)[C@]2(C(=O)CO)O1 (some centres unmarked)", "system": "CD1 mice, plasma", "conditions": "subcutaneous, 0.2 mg/kg", "measurement": "half-life", "value": "60 min"}
{"SMILES": "C[N+]1(CC(=O)OC2CCCCCCCCCCC2)CCCCC1.[I-]", "test": "metabolic stability", "system": "human, liver microsomes", "conditions": "1 µM, pH 7.4", "measurement": "half-life", "value": "3.4 min"}
{"SMILES": "C(=NOCc1ccccc1)c1c(-c2ccccc2)[nH]c2ccccc12", "tested on": "HEK293", "test": "cell growth or viability", "conditions": "50 µM", "measurement": "viability", "value": "66.1%"}
{"SMILES": "CC[C@H](C)[C@@H]1NC(=O)[C@H](Cc2ccc(O)cc2)NC(=O)[C@@H](N)CSSC[C@@H](C(=O)N2CCC[C@H]2C(=O)N[C@@H](CC(C)C)C(=O)NCC(N)=O)NC(=O)[C@H](CC(N)=O)NC(=O)[C@H](CCC(N)=O)NC1=O", "test": "microdialysis, radioimmunoassay", "system": "C57BL/6J male mice, wild type, amygdala extracellular fluid", "conditions": "intranasal, 12 µg, time to half of Cmax", "measurement": "half-life", "value": "25.9 ± 8.6 min"}
{"SMILES": "CCCC[N+]1(CC(=O)OC2CCCCCCCCCCC2)CCCCC1.[I-]", "test": "metabolic stability", "system": "human, liver microsomes", "conditions": "1 µM, pH 7.4", "measurement": "half-life", "value": "< 2 min"}
{"SMILES": "CC(C)[C@H](NC(=O)[C@@H]1CCCN1C(=O)[C@H](CCCNC(=N)N)NC(=O)[C@H](CS)NC(=O)[C@H](Cc1c[nH]c2ccccc12)NC(=O)[C@H](CCCNC(=N)N)NC(=O)[C@@H](Cc1ccccc1)NC(=O)[C@H](Cc1c[nH]cn1)NC(=O)[C@H](CCC(=O)O)NC(=O)[C@H](CS)NC(=O)[C@H](CS)NC(=O)[C@H](CCCCN)NC(=O)[C@@H]1CC(=O)N[C@@H](CCCNC(=N)N)C(=O)N[C@@H](C)C(=O)N[C@@H](CC(=O)O)C(=O)N[C@H](Cc2ccc(O)cc2)C(=O)N1)C(N)=O [technetium-99m labelled]", "system": "C57 mice, skin", "conditions": "intravenous, 0.037 MBq, 24 h", "measurement": "tissue uptake", "value": "0.26 ± 0.15 %ID/g"}
{"SMILES": "CNCc1ccc(-c2[nH]c3cc(F)cc4c3c2CCNC4=O)cc1", "system": "human", "conditions": "oral", "measurement": "half-life", "value": "~1020 min"}
{"SMILES": "C[N+]1(CC(=O)OC2CCCCCCCCCCC2)CCC(Cc2ccccc2)CC1.[I-] (centres unmarked)", "test": "metabolic stability", "system": "human, liver microsomes", "conditions": "1 µM, pH 7.4", "measurement": "half-life", "value": "< 2 min"}
{"SMILES": "OCCc1ccc(O)cc1", "system": "Balb/c tumour-bearing mice, plasma", "conditions": "oral, 109.2 mg/kg SNZ", "measurement": "half-life", "value": "39.6 min"}
{"SMILES": "CC1CCN(Cc2no[n+]([O-])c2-c2ccc(F)cc2)CC1", "system": "C57BL/6 mice, male, plasma and forebrain", "conditions": "intraperitoneal or oral, 20 mg/kg, range over both routes", "measurement": "half-life", "value": "50 to 110 min"}
{"SMILES": "O=C(C[S+]([O-])Cc1ccco1)C12CC3CC(CC(C3)C1)C2 (centres unmarked)", "test": "metabolic stability", "system": "human, liver microsomes", "measurement": "half-life", "value": "30 to 40 min"}
{"note": "For quick reference, copied from above:"}
{"SMILES": "C[N+]1(CC(=O)OC2CCCCCCCCCCC2)CCCCC1.[I-]", "test": "metabolic stability", "system": "human, liver microsomes", "conditions": "1 µM, pH 7.4", "measurement": "half-life", "value": "3.4 min"}
{"SMILES": "CC1CCN(Cc2no[n+]([O-])c2-c2ccc(F)cc2)CC1", "system": "C57BL/6 mice, male, plasma and forebrain", "conditions": "intraperitoneal or oral, 20 mg/kg, range over both routes", "measurement": "half-life", "value": "50 to 110 min"}
